{"data": "Measurements of several laboratories", "note": "Every numbered part comes from another study and shows a few of its results, in no order. Changes are numbered by the printed parent chain."}
{"data": "Sample 1", "target": "Fragile X messenger ribonucleoprotein 1, C-terminal low-complexity region (Fmr1, Mus musculus, UniProt P35922)", "technique": "RNA Bind-n-Seq", "molecule type": "RNA", "medium": "in vitro", "concentration": "200 nM", "setting": "whole 134-nt RNA, ends assumed", "added": "150 mM LiCl", "relative to": "input library", "direction": "higher = stronger binding", "each molecule": "7-deaza-guanosine replaces G", "all sequences stand within": "GGGAGUUCUACAGUCCGACGAUC … UGGAAUUCUCGGGUGUCAAGG"}
{"Sequence": "GUCCUGUGCUACACAUCGUAUGUACCGAAUCGGGCCCCCGGGGCCCCCGGGCCCCCGGAAAGUAUUAUGUUACGCCGUUCGGAUCUGCAC", "log2 enrichment": 0.249}
{"Sequence": "UAACUUUAGAGGAGGAUCUGAUGGAUAUGGCAGUGGACGUGGAUUUGGGGAUGGCUAUAAUGGGUAUGGGGGAGGACCUGGAGGUGGCAA", "log2 enrichment": 0.402}
{"Sequence": "AAGUCCUGUGCUACACAUCGUAUGUACCGAAUCGUGUGUGUGUGUGUGUGUGUGUGUAAAGUAUUAUGUUACGCCGUUCGGAUCUGCACU", "log2 enrichment": -0.407}
{"Sequence": "CUCAAGUCCUGUGCUACACAUCGUAUGUACCGAAUCGGGGUGGGGUGGGUGGGAAAGUAUUAUGUUACGCCGUUCGGAUCUGCACUUCCA", "log2 enrichment": -1.09}
{"Sequence": "ACCAUGCAGGUGGGCAUCUUUGGGAAGUGGGGCAAGGGGGGGAUAGGGAGGGGGGUAACACUUUGGGAACAGGUGGUCCAAGGUCGUUUC", "log2 enrichment": 1.8}
{"Sequence": "UGGCCCUGGUGGCAUGCGGGGAGGUAGAGGUGGCCUCAUGGAUCGUGGUGGUCCCGGUGGAAUGUUCAGAGGUGGCCGUGGUGGAGACAG", "log2 enrichment": -0.294}
{"Sequence": "UCCUGUGCUACACAUCGUAUGUACCGAAUCGGGGAAAAAAGGAAAAAAGGGGAAAAAAGGAAAGUAUUAUGUUACGCCGUUCGGAUCUGC", "log2 enrichment": -0.637}
{"Sequence": "CCCAUUCCAAGAUUUGCUGUUGGCAUUGUAAUAGGAAGAAAUGGAGAGAUGAUCAAAAAAAUACAAAAUGAUGCUGGUGUUCGCAUUCAG", "log2 enrichment": -0.571}
{"Sequence": "CUCAAGUCCUGUGCUACACAUCGUAUGUACCGAAUCGGGCCCGGCCCGGCCCGGAAAGUAUUAUGUUACGCCGUUCGGAUCUGCACUUCC", "log2 enrichment": -0.793}
{"Sequence": "UUACACAAACCUGCAGGUGAAGACAGGCCAGCGGACCCUCAUCAACCCCAAGCCCUGUGGCCAGUUUUGCUGCUGUGAAGUGCUGGGCUG", "log2 enrichment": -0.829}
{"Sequence": "UUCAGUAAAAUGGCAGAAGAGAAACUGACCCACAAAAUGGAAGCUAAUAAAGAGAACCGAGAGGCACAAAUGGCUGCCAAACUGGAACGU", "log2 enrichment": 0.854}
{"data": "Sample 2", "target": "Sal-like protein 4, full length isoform A (SALL4, Homo sapiens, UniProt Q9UJQ4, residues 1-1053)", "technique": "universal PBM", "molecule type": "double-stranded DNA, one strand shown", "medium": "in vitro", "concentration": "600 nM", "setting": "8-mer, flanks averaged, mean of replicates", "direction": "higher = stronger binding", "chain of UniProt Q9UJQ4 (whole entry, looked up)": "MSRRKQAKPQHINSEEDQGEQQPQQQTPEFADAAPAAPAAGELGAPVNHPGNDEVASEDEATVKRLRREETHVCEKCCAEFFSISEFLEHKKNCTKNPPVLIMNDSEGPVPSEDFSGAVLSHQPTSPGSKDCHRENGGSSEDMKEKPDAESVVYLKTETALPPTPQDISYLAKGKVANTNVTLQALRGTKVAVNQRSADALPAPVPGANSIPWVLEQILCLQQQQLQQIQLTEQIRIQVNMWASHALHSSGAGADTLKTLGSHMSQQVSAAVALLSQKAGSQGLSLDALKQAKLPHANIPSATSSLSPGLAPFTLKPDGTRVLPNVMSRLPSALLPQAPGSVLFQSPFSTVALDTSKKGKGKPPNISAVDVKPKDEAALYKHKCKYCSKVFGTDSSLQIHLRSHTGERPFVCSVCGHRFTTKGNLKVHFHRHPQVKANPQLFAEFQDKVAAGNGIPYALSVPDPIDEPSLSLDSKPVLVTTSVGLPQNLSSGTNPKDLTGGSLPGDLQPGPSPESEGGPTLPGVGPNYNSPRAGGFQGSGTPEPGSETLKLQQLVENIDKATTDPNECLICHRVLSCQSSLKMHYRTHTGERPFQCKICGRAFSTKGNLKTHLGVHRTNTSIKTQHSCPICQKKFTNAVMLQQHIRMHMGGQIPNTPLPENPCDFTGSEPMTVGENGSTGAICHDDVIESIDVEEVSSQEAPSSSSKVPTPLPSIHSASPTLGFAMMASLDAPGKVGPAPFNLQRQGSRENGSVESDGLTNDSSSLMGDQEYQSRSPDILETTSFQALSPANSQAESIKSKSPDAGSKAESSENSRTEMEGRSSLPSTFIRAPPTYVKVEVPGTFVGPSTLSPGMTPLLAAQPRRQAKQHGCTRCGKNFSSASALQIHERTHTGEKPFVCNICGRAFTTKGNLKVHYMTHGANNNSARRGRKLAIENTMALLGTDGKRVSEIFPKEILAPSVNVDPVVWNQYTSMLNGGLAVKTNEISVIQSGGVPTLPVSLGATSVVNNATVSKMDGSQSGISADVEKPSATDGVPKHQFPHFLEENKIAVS"}
{"Sequence": "CCACGGCC", "E-score": -0.365}
{"Sequence": "TCCGTGAA", "E-score": 0.0162}
{"Sequence": "ACGCAGGC", "E-score": -0.181}
{"Sequence": "GCAGCAAA", "E-score": -0.06}
{"Sequence": "CCACACCA", "E-score": 0.119}
{"Sequence": "AGTTATTC", "E-score": 0.28}
{"Sequence": "GTTACAAC", "E-score": 0.108}
{"Sequence": "AAGAGTCC", "E-score": -0.194}
{"Sequence": "CGTGAGTC", "E-score": -0.202}
{"Sequence": "CCTAGGTC", "E-score": -0.249}
{"Sequence": "TATACCCA", "E-score": 0.0648}
{"data": "Sample 3", "target": "CCNB2, cyclin fold, Cln2 fusion (human)", "technique": "yeast growth competition, sequencing", "medium": "yeast", "setting": "weak parent motif", "relative to": "not given", "direction": "higher = stronger binding", "starting sequence": "SCAPER docking peptide (human); SNARRSLNFGGST"}
{"Change": "A3P", "normalised enrichment score": 0.135}
{"Change": "N2Y", "normalised enrichment score": -0.267}
{"Change": "L7V", "normalised enrichment score": -0.0542}
{"Change": "T13N", "normalised enrichment score": 0.24}
{"Change": "A3L", "normalised enrichment score": 0.206}
{"Change": "A3E", "normalised enrichment score": 0.484}
{"Change": "S6E", "normalised enrichment score": -0.461}
{"Change": "S1D", "normalised enrichment score": 0.221}
{"Change": "A3H", "normalised enrichment score": 0.0866}
{"Change": "N8F", "normalised enrichment score": 0.272}
{"data": "Single results of other studies"}
{"Molecule": "PhoQ, residues 284 288 289 292 302 303 GLASVI", "target": "PhoP, residues 12 14 15 18 19 SMASL (Escherichia coli, UniProt P23836)", "test": "Sort-seq, measured: YFP reporter", "test system": "E. coli", "conditions": "PhoQ-PhoP variant library, added: 10 µM Mg2+", "scale": "relative to: high Mg2+ state, higher = stronger signaling", "quantity": "fold induction", "result": 4.75}
{"note": "Repeated from above (sample 1):"}
{"Sequence": "ACCAUGCAGGUGGGCAUCUUUGGGAAGUGGGGCAAGGGGGGGAUAGGGAGGGGGGUAACACUUUGGGAACAGGUGGUCCAAGGUCGUUUC", "log2 enrichment": 1.8}
{"Sequence": "UUCAGUAAAAUGGCAGAAGAGAAACUGACCCACAAAAUGGAAGCUAAUAAAGAGAACCGAGAGGCACAAAUGGCUGCCAAACUGGAACGU", "log2 enrichment": 0.854}
{"Sequence": "CUCAAGUCCUGUGCUACACAUCGUAUGUACCGAAUCGGGCCCGGCCCGGCCCGGAAAGUAUUAUGUUACGCCGUUCGGAUCUGCACUUCC", "log2 enrichment": -0.793}
{"Sequence": "AAGUCCUGUGCUACACAUCGUAUGUACCGAAUCGUGUGUGUGUGUGUGUGUGUGUGUAAAGUAUUAUGUUACGCCGUUCGGAUCUGCACU", "log2 enrichment": -0.407}
{"Sequence": "CCCAUUCCAAGAUUUGCUGUUGGCAUUGUAAUAGGAAGAAAUGGAGAGAUGAUCAAAAAAAUACAAAAUGAUGCUGGUGUUCGCAUUCAG", "log2 enrichment": -0.571}
